Assay results from different studies.
Lines come from different studies, so protocols differ. “And” joins repeats or separate records; there may be more than shown. Numbers after ± are the reported error.

COc1cc2c(cc1OC)CN(CCCCn1ccc3cc(OCC[18F])ccc31)C2 — tracer uptake (male CD-1 mouse, bone; intravenous, 280 kBq, 2 min): 3.4 %ID/g
C#CCOc1ccc(/C=C2\SC(=O)N(CC(=O)NCc3ccccc3)C2=O)cc1 — correlation volume (inverse Kirkwood-Buff integrals; binary solvent mixture; concentration not given, 298.15 K, mole fraction x1 0.40): 3510 cm³/mol
COc1cc(F)c(C(C)C)cc1C1=C(CN2C(=O)O[C@H](c3cc(C(F)(F)F)cc(C(F)(F)F)c3)[C@@H]2C)CC(C)(C)CC1 — tolerability (healthy male subjects; oral, 25 to 400 mg, single dose): not toxic
Cc1ccc(OCC(=O)O)cc1 — Tmax (Sprague-Dawley rat, male, plasma; oral gavage, 100 mg/kg of parent drug): 1.5 h
COc1c2c(cc3oc(C)cc(=O)c13)O[C@H](C(C)(C)O[C@@H]1O[C@H](CO)[C@@H](O)[C@H](O)[C@H]1O)C2 — transformation rate (simulated intestinal fluid with pancreatin; 2 h, pH 6.8, 37 °C): 33.4% and ~33.4%
COc1ccc([C@@H]2CC(=O)c3c(O)cc(O[C@@H]4O[C@H](CO[C@@H]5O[C@@H](C)[C@H](O)[C@@H](O)[C@H]5O)[C@@H](O)[C@H](O)[C@H]4O)cc3O2)cc1O — measured concentration (rat plasma; 0.48 ng/mL, three freeze-thaw cycles): 0.44 ± 0.02 ng/mL
C[C@H]1CO[C@@H]2Cn3cc(C(=O)NCc4ccc(F)cc4F)c(=O)c(O[C@@H]4O[C@H](C(=O)O)[C@@H](O)[C@H](O)[C@H]4O)c3C(=O)N12 — participants with detectable plasma drug (humans UGT1A1 wild type; oral, 30 mg, 1 weeks after last dose): 60%
C=CC(=O)Nc1cc(Nc2nccc(-c3cn(C4CC4)c4ccccc34)n2)c(OC)cc1N(C)CCNC — share of radioactivity (radio-HPLC; human male, feces; oral, 110 mg, 0 to 48 h, sample holds 45.32% dose; baseline: sample radioactivity): 12.3%
C=CC(=C)CC[C@]1(C)[C@H](C)C[C@H](OC(=O)CCCCCCC)[C@@]23C(=C[C@H](OC(C)=O)C[C@@H]12)[C@@H](OC(C)=O)O[C@H]3OC(C)=O — haemolysis (haemolysis; 20 µM): 1%
CCOc1ccc2c(c1)C(C)=CC(C)(C)N2c1cc(OCC)cc2c1NC(C)(C)C=C2C — residue concentration (LC-MS/MS; piglets, muscle; oral, 50 mg/kg feed of ethoxyquin, 42 days): 31.6 ± 17.5 ng/g
Cc1cc2c(cc1C1(c3ncc(C(=O)O)cn3)CC1)C(C)(C)CCC2(C)C — blood triglycerides (Sprague-Dawley rat, male; oral, 100 mg/kg, 1 h, sesame oil vehicle): 36 ± 6.4 mg/dL
COc1cc(-c2nc3ccccc3s2)cc(CN2CCN(CC(=O)OC(C)(C)C)CCN(CC(=O)OC(C)(C)C)CC2)c1O — pKa3 (UV-Vis pH titration; 25 °C, ionic strength 0.1 M NaCl): 8.16
CC(=O)N[C@@H](CCCCN)C(=O)NCCCCCC(=O)N[C@H](C(=O)N[C@@H](CO)C(=O)N[C@@H](Cc1ccccc1)C(=O)N[C@]1(C)CCCCCCC=CCCC[C@@](C)(C(=O)N[C@@H](CCC(=O)O)C(=O)N[C@@H](CC(N)=O)C(=O)N[C@@H](Cc2ccccc2)C(N)=O)NC(=O)[C@H](CC(C)C)NC(=O)[C@H](CC(C)C)NC(=O)[C@H](C)NC(=O)[C@H](Cc2c[nH]c3ccccc23)NC(=O)[C@H](Cc2ccc(O)cc2)NC(=O)[C@H](CCC(=O)O)NC1=O)[C@@H](C)O — adjusted retention time (RP-HPLC C12; 35 min gradient 5–95% acetonitrile; higher = more hydrophobic): 20 min
OCc1cn(Cc2ccc(-c3noc(-c4ccc(OCC[18F])c(C(F)(F)F)c4)n3)cc2)nn1 — tracer uptake (rat, liver; intravenous, 2 h): 3.66 %ID/g
COC(=O)C(c1ccccc1Cl)N1CCC(SCC(=O)c2cccc(OC)c2)C(=CC(=O)O)C1 (stereo not drawn) — measured concentration (LC-MS/MS; human plasma; 50 ng/mL, 45 days, -80 °C): 50.4 ± 1.2 ng/mL
C=CC(=O)Nc1cc(Nc2nccc(-n3ccc4nc(OC)ccc43)n2)c(OC)cc1N(C)CCN(C)C — concentration (BALB/c nude mouse, H1975 intracranial tumour, tumour-free brain; oral, 60 mg/kg, 1 h): 927 ng/g
CC(C)c1cnc(-c2cc(Cl)ccc2F)cc1Nc1ccncc1C(=O)NC(CO)CO — patients with treatment-related adverse event (monotherapy, refers to: rash; human patients; oral, dose not given, grade 3, phase I A): 0%
COCCOCCOCCOc1ccc(/C=C/C2=[N+]3C(=C(c4cc(OC)cc(OC)c4)c4c(C)c(I)c(/C=C/c5ccc(OCCOCCOCCOC)cc5)n4[B-]3(F)F)C(C)=C2I)cc1 — Stokes shift (dichloromethane): 504 cm⁻¹
Cn1c(=O)oc2ccc(-c3ccc(CC(C#N)NC(=O)C4CNCCCO4)c(F)c3)cc21 (stereo not drawn) — WBC count decreased incidence (human; oral, 20 mg once daily, TEAE, multiple ascending dose): 11.1%
c1ccc(COc2cc3nc(c2)CNCCNCCNC3)cc1 — sum of log K N-donors (pH-potentiometric titration; I 0.15 M NaCl, 298 K): 20.6
N=C(N)NCCC[C@@H]1NC(=O)[C@H](Cc2c[nH]c3ccccc23)NC(=O)[C@@H](CC2CCCCC2)NC(=O)[C@@H]2CCCN2C(=O)[C@@H](NC(=O)CCc2ccccc2)CCCNC1=O — elimination half-life (C57BL/6J mice, brain; intraperitoneal, 1 mg/kg): 0.776 h
COC(=O)c1ccc(CCc2cc3cc4nc(c(OC)c5[nH]c(cc6nc(cc2[nH]3)CC6(C)C)cc5CCCNC(=O)OC(C)(C)C)C(=O)C4(C)C)cc1 — Qy absorption maximum (DMF; room temperature): 679 nm
CCCC[C@H](NC(C)=O)C(=O)N[C@H]1CC(=O)NCCCC[C@@H](C(=O)N[C@@H](C(=O)N2CCC[C@@H]2C(N)=O)C(C)C)NC(=O)[C@H](Cc2c[nH]c3ccccc23)NC(=O)[C@H](CCCN=C(N)N)NC(=O)[C@@H](Cc2ccc3ccccc3c2)NC(=O)[C@@H]2CCCN2C1=O — Cmax (Beagle dog, both sexes, plasma; subcutaneous, once daily, 2.25 mg/kg, day 1): 4.9 ± 0.3 µg/mL
COc1c(Cl)ccc(Cl)c1C(=O)OC[C@H]1OC(O)[C@H](O)[C@@H]1O (stereo partly drawn) — dicamba formed (HPLC; water; 1 days): 1%
O=C([O-])CN1CCN(CC(=O)[O-])CCN(CC(=O)NCC2CCC(C(=O)NC(Cc3ccc4ccccc4c3)C(=O)NCCCCC(NC(=O)NC(CCC(=O)O)C(=O)O)C(=O)O)CC2)CCN(CC(=O)[O-])CC1.[44Sc+3] (stereo not drawn) — residence time (PET/CT dosimetry, OLINDA/EXM; human, kidneys): 0.341 h
CCCC(CCC)NC(=O)c1ccc(O)c(O)c1 — metabolite peak area (LC-MS; Sprague-Dawley rat, both sexes, rat liver microsomes; 10 µM of parent drug, 10 min, pH 7.4, added: NADPH; baseline: parent drug at time zero): 15.2%
CCCC[C@H](NC(=O)[C@H](CC(C)C)N(C)C(=O)CNC(=O)[C@@H](NC(=O)[C@H](Cc1ccccc1)NC(=O)[C@H](CCCCN)NC(=O)[C@@H](N)CC(=O)O)C(C)C)C(N)=O — heart rate change (anaesthetised Sinclair minipigs; SC, 30 µg/kg; baseline: baseline): -5.21 ± 3.22%
C[C@H](NC(=O)[C@H](C)NC(=O)[C@H](CCCNC(=N)N)NC(=O)[C@H](CCCNC(=N)N)NC(=O)[C@H](CCCNC(=N)N)NC(=O)[C@H](C)NC(=O)[C@H](C)NC(=O)[C@H](CCCNC(=N)N)NC(=O)[C@H](CCCNC(=N)N)NC(=O)[C@H](CCCNC(=N)N)NC(=O)[C@H](CCCNC(=N)N)NC(=O)c1ccc2c(c1)C(=O)OC21c2ccc(O)cc2Oc2cc(O)ccc21)C(=O)N[C@@H](CCCNC(=N)N)C(=O)N[C@@H](CCCNC(=N)N)C(=O)N[C@@H](CCCNC(=N)N)C(=O)N[C@@H](C)C(=O)N[C@@H](C)C(=O)N[C@@H](CCCNC(=N)N)C(=O)N[C@@H](CCCNC(=N)N)C(=O)N[C@@H](CCCNC(=N)N)C(=O)N[C@@H](CCCNC(=N)N)C(=O)O — retained fraction (bovine cartilage explants; 30 µM, 24 h, added: 1 x PBS): ~99%
CCCCCCCCCCCCCCCC(=O)N[C@@H](CCCCN)C(=O)N[C@@H](CCCCN)C(=O)N[C@@H](CO)C(=O)N[C@@H](CCCNC(=N)N)C(=O)N[C@@H](C)C(=O)N[C@@H](CC(C)C)C(=O)N[C@@H](Cc1ccccc1)C(N)=O — tolerability (CAD/ACS patients undergoing catheterization; 0.3 and 0.5 mg/kg): not toxic
CC(C)(O)c1ncc([S@](N)(=O)=NC(=O)Nc2c3c(cc4c2CCC4)CCC3)s1 — dose-normalised AUC(0-t) (healthy human volunteers, plasma; oral, 300 mg single dose, fasted, spray-dried dispersion): 1090 ng·h/mL/mg

Excerpt of the above:
CCOc1ccc2c(c1)C(C)=CC(C)(C)N2c1cc(OCC)cc2c1NC(C)(C)C=C2C — residue concentration (LC-MS/MS; piglets, muscle; oral, 50 mg/kg feed of ethoxyquin, 42 days): 31.6 ± 17.5 ng/g
Cc1cc2c(cc1C1(c3ncc(C(=O)O)cn3)CC1)C(C)(C)CCC2(C)C — blood triglycerides (Sprague-Dawley rat, male; oral, 100 mg/kg, 1 h, sesame oil vehicle): 36 ± 6.4 mg/dL
COc1cc(-c2nc3ccccc3s2)cc(CN2CCN(CC(=O)OC(C)(C)C)CCN(CC(=O)OC(C)(C)C)CC2)c1O — pKa3 (UV-Vis pH titration; 25 °C, ionic strength 0.1 M NaCl): 8.16
CC(=O)N[C@@H](CCCCN)C(=O)NCCCCCC(=O)N[C@H](C(=O)N[C@@H](CO)C(=O)N[C@@H](Cc1ccccc1)C(=O)N[C@]1(C)CCCCCCC=CCCC[C@@](C)(C(=O)N[C@@H](CCC(=O)O)C(=O)N[C@@H](CC(N)=O)C(=O)N[C@@H](Cc2ccccc2)C(N)=O)NC(=O)[C@H](CC(C)C)NC(=O)[C@H](CC(C)C)NC(=O)[C@H](C)NC(=O)[C@H](Cc2c[nH]c3ccccc23)NC(=O)[C@H](Cc2ccc(O)cc2)NC(=O)[C@H](CCC(=O)O)NC1=O)[C@@H](C)O — adjusted retention time (RP-HPLC C12; 35 min gradient 5–95% acetonitrile; higher = more hydrophobic): 20 min
OCc1cn(Cc2ccc(-c3noc(-c4ccc(OCC[18F])c(C(F)(F)F)c4)n3)cc2)nn1 — tracer uptake (rat, liver; intravenous, 2 h): 3.66 %ID/g
